Published values collected from several papers.
Compare with care: the assays were run in different laboratories. ± gives the spread as reported.

SMILES | test | system | setting | quantity | value
O=C1NC2(CC2)COc2ncc(F)cc2[C@H]2COCCN2c2ccn3ncc1c3n2 | – | Sprague-Dawley rat, male, blood | oral, 2.5 mg/kg/day, 4 weeks, end of recovery, subacute toxicity | mean corpuscular volume | 55.1 ± 1.1 fL
CC(C)=CCC/C(C)=C\CCn1cc(CC(P(=O)(O)O)P(=O)(O)O)nn1 | – | CD-1 mouse, plasma | intravenous, 0.5 mg/kg, single dose | AUC(0-t) | 446 ± 26 ng·h/mL
CC(=O)N1c2ccc(-c3ccc(CNC(=O)c4cn5cc(-c6cnc(N)nc6)nc(N6CCOCC6)c5n4)cc3)cc2CC[C@@H]1C | – | C57BL/6 mice, non-tumour-bearing | – | MTD | 50 mg/kg/day
C=Cc1c(C)c2cc3nc(c(CC(=O)[O-])c4[n-]c(cc5nc(cc1[n-]2)C(C)=C5CC)c(C)c4C(=O)[O-])C(CCC(=O)[O-])C3C.[Cu+2].[Na+].[Na+].[Na+] (stereo not shown) | – | Wistar rat, male | oral, 1000 mg/kg daily, 28 days | serum AST | 135 ± 31.5 U/L
CC(C)[C@@H]1NC(=O)CNC(=O)[C@H](CC(N)=O)NC(=O)[C@H](CCCNC(=N)N)NC(=O)[C@H](Cc2ccc(O)cc2)NC(=O)[C@H](C(C)C)NC(=O)[C@@H](NC(=O)[C@@H](NC(=O)[C@H](CC(N)=O)NC(=O)[C@H](Cc2c[nH]c3ccccc23)NC(=O)[C@H](C)NC(=O)[C@H](Cc2ccccc2)NC(=O)CNC(=O)[C@H](CCCCN)NC(=O)[C@H](Cc2ccccc2)NC(=O)[C@H](Cc2ccccc2)NC(=O)[C@H](CCCCN)NC(=O)OCC2c3ccccc3-c3ccccc32)C(C)C)CSSC[C@@H](C(=O)N[C@@H](Cc2c[nH]cn2)C(=O)N[C@@H](CCCNC(=N)N)C(=O)N[C@@H](CCCNC(=N)N)C(=O)N[C@@H](C)C(=O)N[C@@H](CC(N)=O)C(N)=O)NC(=O)[C@H](C(C)C)NC(=O)[C@H](CCCNC(=N)N)NC1=O | – | ICR mouse, blood | intramammary, 10 mg/kg, day 5, 3 d dosing | AST | 26.4 ± 0.68 IU/L
CC[C@H](C)[C@H](NC(=O)[C@H](CCCCN)NC(=O)CNC(=O)[C@H](CC(C)C)NC(=O)[C@H](Cc1ccccc1)NC(=O)[C@H](CCCCN)NC(=O)[C@H](CO)NC(=O)[C@H](Cc1ccccc1)NC(=O)[C@H](Cc1c[nH]c2ccccc12)NC(=O)[C@H](CCC(N)=O)NC(=O)[C@@H](NC(=O)[C@H](Cc1ccccc1)NC(=O)CCCCCNC(=O)CN1CCN(CC(=O)O)CCN(CC(=O)O)CCN(CC(=O)O)CC1)C(C)C)C(=O)N[C@@H](CCC(=O)O)C(=O)N1CCC[C@H]1C(=O)N[C@@H](CC(=O)O)C(=O)N[C@H](C(=O)N[C@@H](CO)C(=O)N[C@@H](CCC(N)=O)C(=O)N[C@H](C(=O)N[C@@H](CCC(N)=O)C(=O)N[C@@H](CC(=O)O)C(=O)N1CCC[C@H]1C(=O)N[C@@H](CC(N)=O)C(=O)N[C@@H](CC(=O)O)C(=O)N[C@@H](CCC(N)=O)C(=O)N[C@@H](Cc1ccc(O)cc1)C(=O)N[C@@H](CCC(=O)O)C(=O)N1CCC[C@H]1C(=O)N[C@@H](Cc1ccccc1)C(=O)O)C(C)C)C(C)C [copper-64 labelled] | – | GZMB-/- mice, CT26 tumour-bearing, blood | 2 h, checkpoint inhibitor-treated | tissue uptake | 0.92 ± 0.1 %ID/g
CC[C@H](C)[C@H](NC(=O)[C@H](C)NC(=O)[C@H](CCCCN)NC(=O)[C@H](CCCCN)NC(=O)[C@@H](N)CCCNC(=N)N)C(=O)N[C@@H](CCCCN)C(=O)N[C@@H](CC(C)C)C(=O)N[C@H](C(=O)N[C@@H](CCCCN)C(=O)N[C@@H](CCCCN)C(=O)N[C@@H](CC(C)C)C(=O)N[C@H](C(=O)N[C@@H](CCCCN)C(=O)N[C@@H](CCCCN)C(=O)N[C@@H](CC(C)C)C(=O)N[C@@H](CCCCN)C(=O)N[C@@H](CCCCN)C(=O)N[C@@H](C)C(=O)N[C@@H](CC(C)C)C(=O)N[C@@H](CCCCN)C(=O)O)C(C)C)C(C)C | – | human red blood cells | 2 mg/L, 1 h, mean of replicates | hemolysis | 1.27%
C=CC(=O)Nc1cccc(Cn2ncc3cnc(Nc4cnn(CCOC)c4)nc32)c1 | – | male Sprague-Dawley rat | oral, 180 mg/kg/day, day 28, 28-day subacute toxicity | serum HDL | 0.58 ± 0.15 mM
COc1cnc2cccc(N3CCc4c(cc(Cn5ccnc5)cc4-c4cn(C)nc4C(F)(F)F)C3=O)c2c1 | – | CD-1 mice | intraperitoneal, 100 mg/kg once daily, day 2 | body weight | 28.4 ± 0.6 g
CCn1ccc(-c2cc(-c3cnn(C)c3)cc([C@@H](C)NC(=O)c3cc(OCCN(C)C)ccc3C)c2)n1 | – | C57BL/6J mice, male, plasma | iv, 10 mg/kg | MRT(0-inf) | 1.76 h
CN1Cc2cc(Cl)ccc2-n2c(nnc2C2CCN(c3cccc([18F])n3)CC2)C1 | PET two-tissue compartment model | rhesus monkey, thalamus | intravenous, dose not given, 60 min scan, baseline scan | total volume of distribution | 1.1 ± 0.31 mL/cm3
CC(C)[C@H](NC(=O)[C@@H](NC(=O)[C@H](CCCNC(=N)N)NC(=O)[C@H](CCCNC(=N)N)NC(=O)[C@H](CCCNC(=N)N)NC(=O)[C@H](CCC(N)=O)NC(=O)[C@H](CCCNC(=N)N)NC(=O)[C@H](CCCNC(=N)N)NC(=O)[C@H](CCCCN)NC(=O)[C@H](CCCCN)NC(=O)[C@H](CCCNC(=N)N)NC(=O)CN)[C@@H](C)O)C(=O)N[C@H](C(=O)N[C@@H](CO)C(=O)N1CCC[C@H]1C(=O)O)[C@@H](C)O | – | ICR mice, female, liver | intranasal, 20 mg/kg daily, 4 weeks | organ weight | 1.46 ± 0.235 g
CCCCC[C@H]1C(=O)N[C@H](C)C(=O)N(C)[C@@H](CCCCC)C(=O)N[C@H](C)C(=O)N(C)[C@@H](CCCCC)C(=O)N[C@H](C)C(=O)N(C)[C@@H](CCCCC)C(=O)N(C)[C@H](C)C(=O)N1C | PAMPA | – | 500 µM, pH 7.4, UV/ELSD/MS detection | log Papp | -5.8

A few entries again:
SMILES | test | system | setting | quantity | value
O=C1NC2(CC2)COc2ncc(F)cc2[C@H]2COCCN2c2ccn3ncc1c3n2 | – | Sprague-Dawley rat, male, blood | oral, 2.5 mg/kg/day, 4 weeks, end of recovery, subacute toxicity | mean corpuscular volume | 55.1 ± 1.1 fL
CCn1ccc(-c2cc(-c3cnn(C)c3)cc([C@@H](C)NC(=O)c3cc(OCCN(C)C)ccc3C)c2)n1 | – | C57BL/6J mice, male, plasma | iv, 10 mg/kg | MRT(0-inf) | 1.76 h
